Measured values collected from several papers.
Values joined by “and” are separate records of one study, mostly repeats; a detail may differ. ± gives the spread as reported.
CCKAR: Cholecystokinin receptor type A (CCKAR, Homo sapiens, UniProt P32238)
Chain of UniProt P32238 (whole entry, looked up): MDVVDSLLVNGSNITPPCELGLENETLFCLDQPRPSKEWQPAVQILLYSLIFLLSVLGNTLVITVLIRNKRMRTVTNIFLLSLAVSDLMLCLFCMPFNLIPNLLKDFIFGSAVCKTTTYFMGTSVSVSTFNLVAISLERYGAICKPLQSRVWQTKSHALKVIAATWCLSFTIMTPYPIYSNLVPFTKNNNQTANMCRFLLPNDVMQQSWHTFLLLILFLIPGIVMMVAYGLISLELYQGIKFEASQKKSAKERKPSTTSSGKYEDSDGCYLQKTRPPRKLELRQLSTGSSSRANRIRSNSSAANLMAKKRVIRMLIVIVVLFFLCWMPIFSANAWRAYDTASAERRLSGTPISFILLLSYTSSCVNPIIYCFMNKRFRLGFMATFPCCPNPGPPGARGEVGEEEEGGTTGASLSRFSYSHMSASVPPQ
TDP1: Tyrosyl-DNA phosphodiesterase 1 (TDP1, Homo sapiens, UniProt Q9NUW8)
Chain of UniProt Q9NUW8 (whole entry, looked up): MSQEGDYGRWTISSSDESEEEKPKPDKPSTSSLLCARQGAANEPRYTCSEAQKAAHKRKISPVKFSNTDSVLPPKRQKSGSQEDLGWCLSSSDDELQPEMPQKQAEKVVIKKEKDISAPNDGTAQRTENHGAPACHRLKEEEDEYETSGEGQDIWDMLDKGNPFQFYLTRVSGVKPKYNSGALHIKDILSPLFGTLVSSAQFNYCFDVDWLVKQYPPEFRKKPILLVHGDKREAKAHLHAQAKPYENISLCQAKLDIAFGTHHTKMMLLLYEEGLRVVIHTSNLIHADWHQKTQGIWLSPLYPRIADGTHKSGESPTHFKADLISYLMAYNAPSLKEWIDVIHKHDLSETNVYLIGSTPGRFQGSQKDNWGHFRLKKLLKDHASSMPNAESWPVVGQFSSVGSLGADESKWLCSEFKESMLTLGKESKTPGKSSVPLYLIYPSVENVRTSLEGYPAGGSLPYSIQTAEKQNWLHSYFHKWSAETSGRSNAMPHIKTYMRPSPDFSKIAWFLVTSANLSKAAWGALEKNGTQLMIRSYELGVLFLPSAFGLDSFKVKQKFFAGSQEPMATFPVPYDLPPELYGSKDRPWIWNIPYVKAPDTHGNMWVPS
Uncharacterized protein: Uncharacterized protein (Trypanosoma brucei brucei, UniProt Q386Q8)
Tmem97: Sigma intracellular receptor 2 (Tmem97, Rattus norvegicus, UniProt Q5U3Y7)
Chain of UniProt Q5U3Y7 (whole entry, looked up): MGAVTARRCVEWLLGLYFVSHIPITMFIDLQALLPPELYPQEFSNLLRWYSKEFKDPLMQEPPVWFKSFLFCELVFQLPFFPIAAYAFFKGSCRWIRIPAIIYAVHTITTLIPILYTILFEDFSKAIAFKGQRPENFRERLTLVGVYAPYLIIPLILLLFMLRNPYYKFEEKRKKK
ppa: Inorganic pyrophosphatase (ppa, Escherichia coli, UniProt P0A7A9)
Chain of UniProt P0A7A9 (whole entry, looked up): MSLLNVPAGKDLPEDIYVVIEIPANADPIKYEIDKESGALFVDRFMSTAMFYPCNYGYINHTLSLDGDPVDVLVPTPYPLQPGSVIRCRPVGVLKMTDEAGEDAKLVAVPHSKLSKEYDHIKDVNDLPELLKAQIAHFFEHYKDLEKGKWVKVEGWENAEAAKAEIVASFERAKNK
EDNRB: Endothelin receptor type B (EDNRB, Homo sapiens, UniProt P24530)
Chain of UniProt P24530 (whole entry, looked up): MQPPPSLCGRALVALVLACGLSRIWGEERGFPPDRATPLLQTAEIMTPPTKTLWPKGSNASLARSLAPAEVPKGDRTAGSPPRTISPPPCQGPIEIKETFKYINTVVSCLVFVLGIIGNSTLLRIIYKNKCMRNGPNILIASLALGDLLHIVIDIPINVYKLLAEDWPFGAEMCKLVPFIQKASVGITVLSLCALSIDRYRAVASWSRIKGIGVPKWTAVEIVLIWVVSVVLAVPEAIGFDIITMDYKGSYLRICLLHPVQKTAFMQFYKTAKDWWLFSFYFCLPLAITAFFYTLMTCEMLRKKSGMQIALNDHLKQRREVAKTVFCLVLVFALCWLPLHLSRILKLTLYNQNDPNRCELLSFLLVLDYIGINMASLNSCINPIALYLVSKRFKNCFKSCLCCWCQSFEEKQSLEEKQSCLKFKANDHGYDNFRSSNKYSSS
OfChi-h: Chitinase (OfChi-h, Ostrinia furnacalis, UniProt Q4AE59)
Chain of UniProt Q93009 (whole entry, unmodified, looked up): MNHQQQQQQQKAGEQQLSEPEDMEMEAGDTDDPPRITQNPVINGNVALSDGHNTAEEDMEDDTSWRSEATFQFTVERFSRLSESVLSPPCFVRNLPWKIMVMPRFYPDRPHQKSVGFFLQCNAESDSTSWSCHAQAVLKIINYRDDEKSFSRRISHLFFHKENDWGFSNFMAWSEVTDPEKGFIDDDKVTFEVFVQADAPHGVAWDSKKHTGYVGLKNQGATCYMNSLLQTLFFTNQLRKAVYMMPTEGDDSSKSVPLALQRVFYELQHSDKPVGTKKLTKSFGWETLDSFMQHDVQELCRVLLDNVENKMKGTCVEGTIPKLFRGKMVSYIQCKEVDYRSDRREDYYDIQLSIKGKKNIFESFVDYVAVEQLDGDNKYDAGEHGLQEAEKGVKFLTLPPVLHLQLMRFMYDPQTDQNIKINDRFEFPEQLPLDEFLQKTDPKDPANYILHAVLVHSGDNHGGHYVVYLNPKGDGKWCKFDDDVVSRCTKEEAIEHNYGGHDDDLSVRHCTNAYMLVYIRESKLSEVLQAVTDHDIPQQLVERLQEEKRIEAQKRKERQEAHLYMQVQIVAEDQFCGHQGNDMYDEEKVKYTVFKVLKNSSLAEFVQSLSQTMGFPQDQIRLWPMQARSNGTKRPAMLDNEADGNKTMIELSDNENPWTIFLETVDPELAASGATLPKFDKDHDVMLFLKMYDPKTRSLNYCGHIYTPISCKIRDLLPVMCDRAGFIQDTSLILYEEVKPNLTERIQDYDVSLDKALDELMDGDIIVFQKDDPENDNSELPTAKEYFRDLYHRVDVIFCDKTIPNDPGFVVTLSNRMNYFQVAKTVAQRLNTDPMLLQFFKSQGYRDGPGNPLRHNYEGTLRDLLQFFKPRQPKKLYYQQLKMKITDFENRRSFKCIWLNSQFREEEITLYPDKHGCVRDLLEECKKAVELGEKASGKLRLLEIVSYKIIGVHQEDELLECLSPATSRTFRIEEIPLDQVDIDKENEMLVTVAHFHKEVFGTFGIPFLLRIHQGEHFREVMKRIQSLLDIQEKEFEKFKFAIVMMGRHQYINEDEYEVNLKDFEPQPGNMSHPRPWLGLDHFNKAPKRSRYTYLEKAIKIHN
Chain of UniProt Q7RTN6 (whole entry, looked up): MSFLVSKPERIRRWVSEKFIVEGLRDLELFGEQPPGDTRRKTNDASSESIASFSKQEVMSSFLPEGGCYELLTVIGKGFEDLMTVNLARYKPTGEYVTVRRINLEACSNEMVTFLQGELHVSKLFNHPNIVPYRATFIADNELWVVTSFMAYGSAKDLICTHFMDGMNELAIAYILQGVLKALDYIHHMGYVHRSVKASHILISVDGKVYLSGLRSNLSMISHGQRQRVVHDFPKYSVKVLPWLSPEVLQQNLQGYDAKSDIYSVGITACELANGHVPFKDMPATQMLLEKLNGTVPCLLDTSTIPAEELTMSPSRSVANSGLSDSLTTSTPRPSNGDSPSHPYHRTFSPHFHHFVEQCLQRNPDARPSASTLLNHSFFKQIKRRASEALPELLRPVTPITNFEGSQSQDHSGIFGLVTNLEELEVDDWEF
Chain of UniProt P42337 (whole entry, unmodified, looked up): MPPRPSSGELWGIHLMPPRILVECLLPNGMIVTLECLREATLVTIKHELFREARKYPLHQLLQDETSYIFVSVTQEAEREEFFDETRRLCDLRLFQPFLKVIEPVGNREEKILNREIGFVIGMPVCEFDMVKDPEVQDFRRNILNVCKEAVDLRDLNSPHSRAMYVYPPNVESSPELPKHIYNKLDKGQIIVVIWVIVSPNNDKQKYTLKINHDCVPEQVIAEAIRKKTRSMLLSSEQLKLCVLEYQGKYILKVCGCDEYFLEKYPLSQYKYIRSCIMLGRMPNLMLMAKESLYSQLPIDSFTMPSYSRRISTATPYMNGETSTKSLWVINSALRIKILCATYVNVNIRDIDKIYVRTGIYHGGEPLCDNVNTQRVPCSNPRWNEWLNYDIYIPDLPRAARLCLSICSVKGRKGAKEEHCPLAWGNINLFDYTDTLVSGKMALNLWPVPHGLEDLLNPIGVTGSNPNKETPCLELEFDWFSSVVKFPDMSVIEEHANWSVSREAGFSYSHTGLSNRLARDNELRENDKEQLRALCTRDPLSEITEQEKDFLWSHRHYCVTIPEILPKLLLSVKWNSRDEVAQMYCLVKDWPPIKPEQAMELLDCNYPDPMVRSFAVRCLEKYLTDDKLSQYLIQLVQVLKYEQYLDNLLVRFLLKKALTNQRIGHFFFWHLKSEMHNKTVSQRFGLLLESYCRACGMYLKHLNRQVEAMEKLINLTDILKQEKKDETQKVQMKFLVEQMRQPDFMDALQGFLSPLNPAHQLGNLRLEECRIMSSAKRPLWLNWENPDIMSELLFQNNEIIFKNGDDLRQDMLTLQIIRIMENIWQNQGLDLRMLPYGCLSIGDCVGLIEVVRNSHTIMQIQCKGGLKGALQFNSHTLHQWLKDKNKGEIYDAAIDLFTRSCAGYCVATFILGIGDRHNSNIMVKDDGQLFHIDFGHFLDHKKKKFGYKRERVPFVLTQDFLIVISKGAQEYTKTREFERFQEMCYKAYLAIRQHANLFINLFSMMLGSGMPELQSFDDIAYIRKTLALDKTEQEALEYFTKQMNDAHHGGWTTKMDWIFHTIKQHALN
Chain of UniProt P29371 (whole entry, looked up): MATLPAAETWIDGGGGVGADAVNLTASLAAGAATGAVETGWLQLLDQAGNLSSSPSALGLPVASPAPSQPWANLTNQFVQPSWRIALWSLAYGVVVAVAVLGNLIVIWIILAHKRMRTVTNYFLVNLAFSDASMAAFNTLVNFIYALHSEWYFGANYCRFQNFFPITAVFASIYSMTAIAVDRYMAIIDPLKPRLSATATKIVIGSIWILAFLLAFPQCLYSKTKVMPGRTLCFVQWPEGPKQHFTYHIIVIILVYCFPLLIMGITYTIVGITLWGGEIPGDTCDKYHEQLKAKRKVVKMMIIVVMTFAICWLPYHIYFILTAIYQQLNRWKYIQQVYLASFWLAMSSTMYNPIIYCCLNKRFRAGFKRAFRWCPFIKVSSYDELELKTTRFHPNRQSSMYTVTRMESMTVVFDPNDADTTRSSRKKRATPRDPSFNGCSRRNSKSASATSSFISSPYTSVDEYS

SMILES | tested on | assay | test system | conditions | measurement | result
O=C1c2sc(-c3ccc(N4CCC(F)C4)nc3F)nc2CCN1c1cccnc1 (stereo not drawn) | GABA-A receptor; GABA-A site (alpha1/beta2 interface), with gamma-2 subunit (Homo sapiens, UniProt P14867+P47870) | radioligand binding | – | 1 µM, together with: agonist radioligand | inhibition | -14%
COc1ccc(S(=O)(=O)N2CCc3ccccc3C2)cc1N1CCN(C(=O)c2ccc(F)cc2C(F)(F)F)CC1 | CCKAR | ligand displacement, radioligand | – | 1 µM | inhibition | 5.7%
Cc1nc2c(F)cc(-c3nc(Nc4ccc(CNC(=O)CCCCCCC(=O)NO)cc4)ncc3F)cc2n1C(C)C | Phosphatidylinositol 4,5-bisphosphate 3-kinase catalytic subunit alpha isoform, with p85 alpha (Pik3ca, Mus musculus, UniProt P42337, E542K) | enzyme activity | – | 1 µM, p110α(E542K)/p85α)(m mouse | inhibition | 32%
O=C(N/C(=C/c1ccc(Br)cc1)C(=O)N1CCCCC1)c1ccccc1 | KCNT1 (Homo sapiens, UniProt Q5JUK3) | ion current, inhibitor, patch clamp | HEK293 | 10 µM | inhibition | > 40%
CN(Cc1ccc(/C=C/C(=O)NO)cc1)CC12CC3CC(CC(C3)C1)C2 | human 5-HT2C receptor | antagonist radioligand binding | – | 0.05 µM | inhibition | -5%
Cc1csc2sc(C=NOCc3ccc4nc(-c5ccccc5)c(Nc5ccc(C(=O)O)cc5)n4c3)c(C)c12 | TDP1 | enzyme activity, inhibitor | – | 100 µM, unpurified compound | inhibition | 12.2%
CN1CC[C@@H](COc2cnc(C#N)cc2-c2ccn3nc(NC(=O)C4CC4)cc3c2)C1 | TSSK4 (Homo sapiens, UniProt Q6SA08) | enzyme activity, inhibitor | – | 1 µM | inhibition | 9%
C/C=C/C(=O)Nc1ccc2nc(NCCCCCN(C)C)nc(NCCCCCCN(C)C)c2c1 | PRMT8 (Homo sapiens, UniProt Q9NR22) | enzyme activity, inhibitor, radiometric | – | 50 µM | inhibition | 73%
C=C1CC[C@H](OCCCNC(=O)CCOCCOCCOCCOCCOCCOCCOCCOCCOCCOCCOCCOCCOCCOCCOCCOCCOCCOCCOCCOCCOCCOCCOCCOCCOCCOCCOCCOCCOCCOCCOCCOCCOCCOCCOCCOCCNC(=O)CCN2C(=O)CC(SC[C@H](NC(=O)[C@H](Cc3ccccc3)NC(=O)[C@H](CC(N)=O)NC(=O)[C@H](Cc3c[nH]cn3)NC(=O)[C@@H](NC(=O)[C@H](CC(=O)O)NC(=O)[C@H](CCC(N)=O)NC(=O)[C@H](CC(C)C)NC(=O)[C@H](CCCCN)NC(=O)[C@H](CCCCN)NC(=O)[C@H](CCCNC(=N)N)NC(=O)[C@H](CC(C)C)NC(=O)[C@H](Cc3c[nH]c4ccccc34)NC(=O)[C@H](CCC(=O)O)NC(=O)[C@@H](NC(=O)[C@H](CCCNC(=N)N)NC(=O)[C@H](CCC(=O)O)NC(=O)[C@H](CCSC)NC(=O)[C@H](CO)NC(=O)[C@H](CC(N)=O)NC(=O)[C@H](CC(C)C)NC(=O)[C@H](Cc3c[nH]cn3)NC(=O)[C@H](CCCCN)NC(=O)CNC(=O)[C@H](CC(C)C)NC(=O)[C@H](CC(N)=O)NC(=O)[C@H](Cc3c[nH]cn3)NC(=O)[C@H](CCSC)NC(=O)[C@H](CC(C)C)NC(=O)[C@H](CCC(N)=O)NC(=O)[C@@H](NC(=O)[C@H](CCC(=O)O)NC(=O)[C@H](CO)NC(=O)[C@@H](NC(=O)[C@@H](N)CO)C(C)C)[C@@H](C)CC)C(C)C)C(C)C)C(=O)O)C2=O)C/C1=C/C=C1\CCC[C@]2(C)[C@@H]([C@H](C)CCCC(C)(C)O)CC[C@@H]12 (stereo partly drawn) | – | – | male cynomolgus monkey, plasma | intravenous, 0.02 mg/kg, single dose | AUC(0-t) | 2590 ng·h/mL
COc1ccc2c(c1OC)C(=O)N(c1nc3ccccc3s1)C2 | Uncharacterized protein | enzyme activity, inhibitor, coupled colorimetric | – | 30 µM, together with: E. coli pyrophosphatase coupling | inhibition | 22.5%
CS(=O)(=O)C(C=NOCc1ccc(-c2nc3cc(-c4ccccc4)ccn3c2Nc2ccc(C(=O)O)cc2)cc1)c1nc2ccccc2[nH]1 (stereo not drawn) | TDP1 | enzyme activity, inhibitor | – | 100 µM, unpurified compound | inhibition | 73.3%
COc1ccc(NC2(C#N)C(=O)Nc3ccccc32)cc1 (stereo not drawn) | Uncharacterized protein | enzyme activity, inhibitor, coupled colorimetric | – | 30 µM, together with: E. coli pyrophosphatase coupling | inhibition | 49.4%
CCC(=O)N(C)c1ccc(Cl)c(Cl)c1 | TACR3 (Homo sapiens, UniProt P29371) | ligand displacement, radioligand | – | 10 µM | inhibition | < 10%
C[Si](C)(C)C[C@@H](CN)CC(=O)O | Tmem97 | ligand displacement, radioligand | – | 75 µM | inhibition | 5%
C[N+]1(Cc2ccc3ccccc3c2)CCN(CCCN2c3ccccc3Sc3ccc(Cl)cc32)CC1 | ppa | inhibitor, counter-screen, coupling enzyme alone | – | 30 µM | inhibition | 34.7%
C=C(NC(=O)c1csc(-c2nc3c(cc2O)-c2nc(cs2)C(=O)NC(C(C)O)C(=O)NC(=C(C)OC)c2nc(cs2)C(=O)NC2c4nc(cs4)C(=O)NC(COC(=O)c4c5c6c(cccc6n4O)COC(=O)C(OC4CC(C)(O)C(N(C)C)C(C)O4)C2OC5)c2nc-3cs2)n1)C(N)=O (stereo not drawn) | – | – | ICR mice, Streptococcus pneumoniae ATCC 49169 infected, immunocompromised, blood | intravenous, 32 mg/kg/day once daily | AUC(0-inf) | 5020 ng·h/mL
Cc1[nH]nc2c1N=C(c1ccccc1Cl)c1cnc(N3CCOCC3)cc1N2 | EDNRB | cell-free assay | – | 10 µM | inhibition | 2%
CCc1c(-c2ccc3[nH]ncc3c2)cnc(N)c1-c1ccc(O)cc1 | USP7 (Homo sapiens, UniProt Q93009, V517F) | enzyme activity, inhibitor | – | 50 µM | inhibition | 60.2% and 42.7%
COc1nc2c(C)cccn2c(=O)c1C=NOCc1ccc2nc(-c3ccccc3)c(Nc3ccc(C(=O)O)cc3)n2c1 | TDP1 | enzyme activity, inhibitor | – | 100 µM, unpurified compound | inhibition | -19%
CC1=NN(c2cccc(F)c2)C(=O)/C1=N\Nc1ccc(S(N)(=O)=O)cc1 | bovine α-glucosidase | enzyme activity, inhibitor, glucose oxidase | – | 200 µg/mL, together with: maltose | inhibition | 37.7%
CN(C)c1nc(NCc2ccc3ccccc3c2)c(/N=N/c2ccc(Cl)cc2)c(N(C)C)n1 | OfChi-h | enzyme activity, inhibitor, fluorescence | – | 1 µM | inhibition | 88.1%
O=C(O)c1ccc(Nc2c(-c3ccccc3)nc3ccc(CON=Cc4[nH]ncc4Br)cn23)cc1 | TDP1 | enzyme activity, inhibitor | – | 100 µM, unpurified compound | inhibition | -2%
COc1ccc(Cl)cc1C(=O)Sc1cccccc1=O | HepDES19 | cell growth or viability, MTS | – | 72 h | CC50 | 22.8 µM
Brc1ccccc1-c1nnc(CSc2nnnn2-c2ccccc2)o1 | benzodiazepine site rat | binding | rat brain | 10 µM | inhibition | 35%

SMILES | tested on | assay | test system | conditions | measurement | result
C=CC(=O)Nc1cc(-c2nn(C3CCN(CCNC(=O)[C@H](C)CCC45CC6CC(CC(C6)C4)C5)CC3)c3ncnc(N)c23)ccc1Oc1ccccc1 | STRADA (Homo sapiens, UniProt Q7RTN6) | inhibitor, KiNativ profiling | biochemical | 2 µM | inhibition | 27.6%
COc1cc(C=NOCc2ccc(-c3nc4cc(-c5ccccc5)ccn4c3Nc3ccc(C(=O)O)cc3)cc2)cc(I)c1OC(C)=O | TDP1 | enzyme activity, inhibitor | – | 100 µM, unpurified compound | inhibition | 68.5%
CC(C)C[C@H](NC(=O)[C@H](Cc1ccc(O)cc1)NC(=O)[C@@H](CCCNC(=N)N)NC(=O)[C@@H](CO)NC(=O)[C@H](Cc1ccccc1)NC(=O)[C@H](CC1CCCCC1)NC(=O)[C@H](CC(=O)O)NC(=O)CN1CCN(CC(=O)O)CCN(CC(=O)O)CCN(CC(=O)O)CC1)C(=O)N[C@@H](Cc1c[nH]c2ccccc12)C(=O)N[C@@H](CO)C(=O)O [copper-64 labelled] | – | – | human, upper large intestine | concentration not given, 3 h | activity concentration | 804 Bq/mL and 1750 Bq/mL and 4520 Bq/mL and 1790 Bq/mL and 1910 Bq/mL and 1650 Bq/mL
CS(=O)(=O)Nc1cccc(-c2csc3cnc(Nc4ccc(N5CCN(CCCCCOc6cccc7c6C(=O)N(C6CCC(=O)NC6=O)C7=O)CC5)cc4)nc23)c1 (stereo not drawn) | ILK (Homo sapiens, UniProt Q13418) | kinase probe labelling, binder, KiNativ ATP-acylphosphate LC-MS | MOLT-4 live cells | 1 µM | inhibition | 17.2%
O=C1c2sc(-c3ccc(N4CCC(CO)CC4)nc3F)nc2CCN1c1cccnc1 | CCKAR | ligand displacement, radioligand | – | 1 µM | inhibition | -15%
COc1ccc(OC)c(C2=Nn3c(nnc3C3CCCCC3)SC2)c1 | ppa | inhibitor, counter-screen, coupling enzyme alone | – | 30 µM | inhibition | 8.3%
Cn1c(=O)n(C)c2cc([N+](=O)[O-])c(C=NOCc3ccc(-c4nc5cc(-c6ccccc6)ccn5c4Nc4ccc(C(=O)O)cc4)cc3)cc21 | TDP1 | enzyme activity, inhibitor | – | 100 µM, unpurified compound | inhibition | 101%
CO[C@@H](C)c1c(NC(=O)Nc2cnc(-n3nccn3)c(C(F)(F)F)c2)cnc2sc(C)nc12 | NTSR1 (Homo sapiens, UniProt P30989) | ligand displacement, radioligand | – | 10 µM | inhibition | -6.1%
CNc1sc(C(=O)c2ccc(OC)cc2)c(N)c1C#N | Uncharacterized protein | enzyme activity, inhibitor, coupled colorimetric | – | 30 µM, together with: E. coli pyrophosphatase coupling | inhibition | 28.5%
C[Si]1(C[C@H](CN)CC(=O)O)CCCC1 | Tmem97 | ligand displacement, radioligand | – | 70 µM | inhibition | 2%
C[N+](C)(C/C=C/CN1C(=O)c2ccccc2C1=O)CCCN1c2ccccc2CCc2ccc(Cl)cc21 | ppa | inhibitor, counter-screen, coupling enzyme alone | – | 30 µM | inhibition | 45.3%
CC(=O)C12NC(C)(C)CC1(C)C(=O)C1=C2c2c(c3c4n2C(C)(C)CC2=C4C4(CC(C)(C)NC(C)(C4)C2=O)CC3(C)C)C(=O)C(C)(C)N1 (single isomer, unassigned; (-)) | CACNA1I (Homo sapiens, UniProt Q9P0X4) | ion current, antagonist, whole-cell patch clamp | HEK293T | 10 µM | inhibition | 2.26 ± 0.11%
COCC(=O)N1CCc2cc(-c3csc(NC(=O)c4cc(OC)cc(OC)c4)n3)ccc21 | EDNRB | ligand displacement, radioligand | – | 10 µM | inhibition | 5%
CN(C)c1nc(NCc2cccc(-c3ccccc3)c2)c(/N=N/c2ccc(Cl)cc2)c(N(C)C)n1 | OfChi-h | enzyme activity, inhibitor, fluorescence | – | 1 µM | inhibition | 88.9%
Cc1nc2c(C)cccn2c1C=NOCc1ccc(-c2nc3cc(-c4ccccc4)ccn3c2Nc2ccc(C(=O)O)cc2)cc1 | TDP1 | enzyme activity, inhibitor | – | 100 µM, unpurified compound | inhibition | 83.2%
Oc1cc2c(cc1O)C(c1cccc3ccccc13)NCC2 (stereo not drawn) | tyrosinase | enzyme activity, inhibitor | – | 100 µM, together with: levodopa | inhibition | 15.7 ± 5.01%
COc1cc(NC(=O)N2CCSc3ccccc32)cc(OC)c1 | ppa | enzyme activity | – | 30 µM | inhibition | -4.4%
CC(C)=CCc1ccc(=O)c(O)cc1C(C)C | HepDES19 | cell growth or viability, MTS | – | 72 h | CC50 | 13.8 µM
COc1cccc(OC)c1-c1cc(C(=O)NC2(C(=O)O)C3CC4CC(C3)CC2C4)nn1-c1ccc(C(=O)NCCNC(=O)[C@H](CCCCNC(=O)[C@H](CC(C)C)NC(=O)C2OC2C(=O)O)NC(=O)CN2CCN(CC(=O)[O-])CCN(CC(=O)[O-])CCN(CC(=O)[O-])CC2)cc1C(C)C.[177Lu+3] (mixture of isomers) | HT-29 tumour model | – | host not given, pancreas | 7 days, tumour-bearing | tracer uptake | 0.21 %ID/g
CC1=NN(c2ccccc2F)C(=O)/C1=N\Nc1ccc(S(N)(=O)=O)cc1 | bovine α-glucosidase | enzyme activity, inhibitor, glucose oxidase | – | 500 µg/mL, together with: maltose | inhibition | 45.7%
CCOC(=O)CCCCC1NCCc2cc(O)c(O)cc21 (stereo not drawn) | tyrosinase | enzyme activity, inhibitor | – | 100 µM, together with: levodopa | inhibition | -17.2 ± 0.64%
Cc1c(C)c(C)c(C[N+]2(C)CCN(CCCN3c4ccccc4Sc4ccc(Cl)cc43)CC2)c(C)c1C | ppa | inhibitor, counter-screen, coupling enzyme alone | – | 30 µM | inhibition | 51.7%
Cc1ccc(C=NOCc2ccc(-c3nc4cc(-c5ccccc5)ccn4c3Nc3ccc(C(=O)O)cc3)cc2)cc1[N+](=O)[O-] | TDP1 | enzyme activity, inhibitor | – | 100 µM, unpurified compound | inhibition | 75.3%
CC1Cc2ccccc2N1C(=O)CN1CCN(c2ccccc2)CC1 (stereo not drawn) | HTR4 (Homo sapiens, UniProt Q13639) | radioligand binding | – | concentration not given | inhibition | 0.2%
